{"data": "Measured values collected from several papers", "note": "Every numbered part comes from another study and shows a few of its results, in no order.", "chain of UniProt O14936 (whole entry, looked up)": "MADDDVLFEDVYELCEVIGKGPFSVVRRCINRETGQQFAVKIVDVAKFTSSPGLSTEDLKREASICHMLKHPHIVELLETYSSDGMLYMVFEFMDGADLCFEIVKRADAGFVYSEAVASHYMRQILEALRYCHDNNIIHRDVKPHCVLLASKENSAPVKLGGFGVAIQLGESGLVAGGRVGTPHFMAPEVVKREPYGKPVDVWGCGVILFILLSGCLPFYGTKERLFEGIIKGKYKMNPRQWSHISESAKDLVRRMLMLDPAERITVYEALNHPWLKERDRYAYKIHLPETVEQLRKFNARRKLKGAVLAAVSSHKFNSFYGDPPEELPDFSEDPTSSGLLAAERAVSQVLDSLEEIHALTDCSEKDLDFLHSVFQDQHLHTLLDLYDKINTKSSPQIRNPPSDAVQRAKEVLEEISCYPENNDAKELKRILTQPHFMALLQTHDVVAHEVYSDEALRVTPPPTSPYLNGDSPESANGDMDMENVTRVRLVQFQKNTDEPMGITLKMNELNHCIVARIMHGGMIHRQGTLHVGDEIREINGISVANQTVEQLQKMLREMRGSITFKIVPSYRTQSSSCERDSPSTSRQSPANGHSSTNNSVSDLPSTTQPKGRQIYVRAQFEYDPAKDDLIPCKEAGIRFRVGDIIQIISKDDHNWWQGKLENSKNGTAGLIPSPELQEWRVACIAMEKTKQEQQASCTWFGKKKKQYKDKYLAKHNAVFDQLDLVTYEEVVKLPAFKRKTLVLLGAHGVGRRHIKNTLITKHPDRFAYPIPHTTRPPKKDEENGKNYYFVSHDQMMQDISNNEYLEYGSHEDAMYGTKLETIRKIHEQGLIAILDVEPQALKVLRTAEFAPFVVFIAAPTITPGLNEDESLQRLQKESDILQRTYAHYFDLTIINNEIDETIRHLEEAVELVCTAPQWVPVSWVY", "chain of UniProt Q16539 (whole entry, looked up)": "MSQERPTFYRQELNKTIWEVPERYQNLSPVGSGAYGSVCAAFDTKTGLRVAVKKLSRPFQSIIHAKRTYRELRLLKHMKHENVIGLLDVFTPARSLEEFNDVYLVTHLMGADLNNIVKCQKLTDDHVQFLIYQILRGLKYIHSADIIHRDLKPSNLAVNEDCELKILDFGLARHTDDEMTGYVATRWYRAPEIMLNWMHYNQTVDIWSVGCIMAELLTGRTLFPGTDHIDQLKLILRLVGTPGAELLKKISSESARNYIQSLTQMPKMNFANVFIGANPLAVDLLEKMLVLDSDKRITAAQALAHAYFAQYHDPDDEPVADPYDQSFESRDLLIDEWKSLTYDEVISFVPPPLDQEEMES", "chain of UniProt O75914 (whole entry, looked up)": "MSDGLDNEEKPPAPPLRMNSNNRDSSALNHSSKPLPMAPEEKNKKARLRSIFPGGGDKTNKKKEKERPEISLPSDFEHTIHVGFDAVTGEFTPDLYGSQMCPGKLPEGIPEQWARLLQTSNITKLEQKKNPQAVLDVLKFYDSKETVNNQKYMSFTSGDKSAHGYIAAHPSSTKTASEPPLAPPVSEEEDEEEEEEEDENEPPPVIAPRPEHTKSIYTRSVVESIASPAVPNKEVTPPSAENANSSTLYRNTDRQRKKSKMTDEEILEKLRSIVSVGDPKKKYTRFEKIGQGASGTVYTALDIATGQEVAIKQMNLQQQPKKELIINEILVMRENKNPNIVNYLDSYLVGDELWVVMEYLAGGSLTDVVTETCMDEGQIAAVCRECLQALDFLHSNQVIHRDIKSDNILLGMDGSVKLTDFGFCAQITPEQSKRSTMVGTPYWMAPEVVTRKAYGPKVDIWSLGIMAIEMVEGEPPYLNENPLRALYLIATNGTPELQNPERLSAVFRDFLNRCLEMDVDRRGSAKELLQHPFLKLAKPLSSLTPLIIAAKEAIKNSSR", "chain of UniProt Q13164 (whole entry, looked up)": "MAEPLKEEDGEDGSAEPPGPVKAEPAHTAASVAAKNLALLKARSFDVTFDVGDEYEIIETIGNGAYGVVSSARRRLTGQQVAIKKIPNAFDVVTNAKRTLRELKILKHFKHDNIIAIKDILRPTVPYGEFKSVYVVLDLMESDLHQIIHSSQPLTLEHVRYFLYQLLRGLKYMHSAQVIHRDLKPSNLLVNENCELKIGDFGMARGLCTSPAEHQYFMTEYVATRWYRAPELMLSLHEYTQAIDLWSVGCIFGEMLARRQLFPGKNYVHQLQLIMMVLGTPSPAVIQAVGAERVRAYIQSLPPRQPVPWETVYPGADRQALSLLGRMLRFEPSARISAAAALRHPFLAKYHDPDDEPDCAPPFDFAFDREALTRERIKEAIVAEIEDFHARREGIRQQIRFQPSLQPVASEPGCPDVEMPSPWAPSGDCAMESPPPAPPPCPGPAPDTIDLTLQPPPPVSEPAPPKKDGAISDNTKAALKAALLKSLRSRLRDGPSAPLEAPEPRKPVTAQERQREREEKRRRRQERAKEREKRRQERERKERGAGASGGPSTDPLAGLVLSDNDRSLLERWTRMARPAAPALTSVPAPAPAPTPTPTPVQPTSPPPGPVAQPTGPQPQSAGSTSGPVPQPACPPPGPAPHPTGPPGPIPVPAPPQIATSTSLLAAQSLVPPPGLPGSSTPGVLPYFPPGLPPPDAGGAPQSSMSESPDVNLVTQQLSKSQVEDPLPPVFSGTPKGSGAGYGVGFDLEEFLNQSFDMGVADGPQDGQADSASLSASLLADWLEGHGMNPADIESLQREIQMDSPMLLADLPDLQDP", "chain of UniProt P07949 (whole entry, unmodified, looked up)": "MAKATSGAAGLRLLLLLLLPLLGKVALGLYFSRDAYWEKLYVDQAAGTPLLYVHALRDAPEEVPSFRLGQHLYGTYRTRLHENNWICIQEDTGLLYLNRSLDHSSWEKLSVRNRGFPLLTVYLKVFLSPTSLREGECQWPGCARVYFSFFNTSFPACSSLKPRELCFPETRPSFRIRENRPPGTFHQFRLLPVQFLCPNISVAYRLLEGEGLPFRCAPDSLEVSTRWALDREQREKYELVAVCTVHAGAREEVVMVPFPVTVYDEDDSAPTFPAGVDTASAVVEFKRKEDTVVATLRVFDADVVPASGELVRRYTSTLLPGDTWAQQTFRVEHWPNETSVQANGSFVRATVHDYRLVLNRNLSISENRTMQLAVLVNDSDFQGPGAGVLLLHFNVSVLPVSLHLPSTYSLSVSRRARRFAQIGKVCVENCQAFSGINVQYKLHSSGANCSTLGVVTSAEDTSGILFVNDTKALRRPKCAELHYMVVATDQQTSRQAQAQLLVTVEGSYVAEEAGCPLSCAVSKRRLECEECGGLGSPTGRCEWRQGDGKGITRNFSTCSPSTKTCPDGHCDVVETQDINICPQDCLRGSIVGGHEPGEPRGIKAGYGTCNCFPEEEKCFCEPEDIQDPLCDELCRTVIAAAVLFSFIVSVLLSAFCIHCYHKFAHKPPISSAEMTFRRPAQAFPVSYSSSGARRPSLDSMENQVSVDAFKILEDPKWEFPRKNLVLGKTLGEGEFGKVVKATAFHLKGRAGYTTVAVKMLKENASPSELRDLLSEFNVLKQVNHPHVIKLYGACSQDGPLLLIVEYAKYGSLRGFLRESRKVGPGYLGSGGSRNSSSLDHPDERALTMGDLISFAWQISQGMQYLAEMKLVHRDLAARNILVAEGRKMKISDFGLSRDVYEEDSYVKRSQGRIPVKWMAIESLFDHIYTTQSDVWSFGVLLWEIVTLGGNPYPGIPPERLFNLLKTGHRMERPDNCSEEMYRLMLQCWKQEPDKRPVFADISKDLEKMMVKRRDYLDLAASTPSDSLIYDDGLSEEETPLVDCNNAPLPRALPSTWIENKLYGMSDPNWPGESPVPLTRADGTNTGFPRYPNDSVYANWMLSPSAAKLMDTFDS"}
{"data": "Study 1", "Structure (SMILES)": "CN1CCN(C(=O)c2ccc(NC(=O)Nc3ccc(N(C)c4ccnc(Nc5ccc(CS(C)(=O)=O)cc5)n4)cc3)cc2)CC1", "technique": "competitive binding panel", "tested at": "1 µM", "baseline": "vehicle"}
{"target": "Serine/threonine-protein kinase DCLK1 (DCLK1, Homo sapiens, UniProt O15075)", "test": "refers to: DCAMKL1", "remaining binding [%]": 97}
{"target": "Serine/threonine-protein kinase 17A (STK17A, Homo sapiens, UniProt Q9UEE5)", "test": "refers to: DRAK1", "remaining binding [%]": 100}
{"target": "Cyclin-dependent kinase-like 5 (CDKL5, Homo sapiens, UniProt O76039)", "remaining binding [%]": 100}
{"target": "MAP kinase-interacting serine/threonine-protein kinase 1 (MKNK1, Homo sapiens, UniProt Q9BUB5)", "remaining binding [%]": 65}
{"target": "Mitogen-activated protein kinase 7 (MAPK7, Homo sapiens, UniProt Q13164)", "test": "refers to: ERK5", "remaining binding [%]": 100}
{"target": "AP2-associated protein kinase 1 (AAK1, Homo sapiens, UniProt Q2M2I8)", "remaining binding [%]": 19}
{"data": "Study 2", "target": "Focal adhesion kinase 1 (PTK2, Homo sapiens, UniProt Q05397)", "read-out": "enzyme activity", "action": "inhibitor", "tested at": "0.5 µM", "baseline": "control", "chain of UniProt Q05397 (whole entry, looked up)": "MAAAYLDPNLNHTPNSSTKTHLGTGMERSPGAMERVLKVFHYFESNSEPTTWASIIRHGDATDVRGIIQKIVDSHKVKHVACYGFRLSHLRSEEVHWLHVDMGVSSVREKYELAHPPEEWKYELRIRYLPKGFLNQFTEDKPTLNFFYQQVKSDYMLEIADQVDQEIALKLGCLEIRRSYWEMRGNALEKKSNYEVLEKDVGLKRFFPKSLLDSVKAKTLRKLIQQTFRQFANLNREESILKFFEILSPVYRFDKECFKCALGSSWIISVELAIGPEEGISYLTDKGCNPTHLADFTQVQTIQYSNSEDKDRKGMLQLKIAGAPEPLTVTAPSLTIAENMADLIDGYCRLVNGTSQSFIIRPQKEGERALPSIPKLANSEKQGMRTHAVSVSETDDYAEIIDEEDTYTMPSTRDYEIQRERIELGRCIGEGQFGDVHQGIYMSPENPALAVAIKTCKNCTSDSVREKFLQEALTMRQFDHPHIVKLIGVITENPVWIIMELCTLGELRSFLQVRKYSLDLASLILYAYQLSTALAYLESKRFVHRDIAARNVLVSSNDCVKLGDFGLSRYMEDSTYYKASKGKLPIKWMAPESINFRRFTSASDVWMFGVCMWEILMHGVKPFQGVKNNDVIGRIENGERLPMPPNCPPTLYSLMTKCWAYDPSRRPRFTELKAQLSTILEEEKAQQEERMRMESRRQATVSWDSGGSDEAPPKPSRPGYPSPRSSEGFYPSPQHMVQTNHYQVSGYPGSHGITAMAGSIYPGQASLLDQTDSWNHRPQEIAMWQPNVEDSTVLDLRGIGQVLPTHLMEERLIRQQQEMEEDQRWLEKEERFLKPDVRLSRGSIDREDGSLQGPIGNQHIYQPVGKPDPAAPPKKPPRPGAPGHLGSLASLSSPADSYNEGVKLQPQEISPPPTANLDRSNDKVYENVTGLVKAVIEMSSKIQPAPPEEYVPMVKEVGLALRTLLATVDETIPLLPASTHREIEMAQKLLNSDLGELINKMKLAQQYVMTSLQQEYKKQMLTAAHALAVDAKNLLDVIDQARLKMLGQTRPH"}
{"SMILES": "NC(=O)c1ccc(-c2nc(-c3ccc4c(c3)OCCO4)c(-c3ccccn3)[nH]2)cc1", "remaining activity": "103%"}
{"SMILES": "Clc1ccc(Nc2nnc(Cc3ccncc3)c3ccccc23)cc1", "remaining activity": "101%"}
{"SMILES": "CC(C)n1cnc2c(Nc3cccc(Cl)c3)nc(NCCO)nc21", "remaining activity": "68.9%"}
{"SMILES": "NC(=O)c1cccc(-c2cc(Nc3ccc(OC(F)(F)F)cc3)ncn2)c1", "remaining activity": "100%"}
{"SMILES": "O=C(c1ccccc1)c1ccc(N2CCOCC2)cc1O", "remaining activity": "109%"}
{"SMILES": "c1cc(-c2cnn3cc(-c4ccc(OCCN5CCCCC5)cc4)cnc23)ccn1", "remaining activity": "110%"}
{"SMILES": "Nc1nc(Nc2ccc(S(N)(=O)=O)cc2)nn1C(=S)Nc1c(F)cccc1F", "remaining activity": "25.3%"}
{"SMILES": "N#C/C(=C(/N)SC1C=CC=CC1)c1cccc(C(O)c2ccncc2)c1 (centres unmarked)", "remaining activity": "96.5%"}
{"SMILES": "COc1cc2c(Nc3ccc(Br)cc3F)ncnc2cc1OCC1CCN(C)CC1", "remaining activity": "100%"}
{"SMILES": "O=C1NC(=O)/C(=C/c2ccc3c(c2)OC(F)(F)O3)S1", "remaining activity": "94.9%"}
{"SMILES": "CCCCc1c(-c2ccc(O)cc2)[nH]c2nccnc12", "remaining activity": "83.1%"}
{"SMILES": "O=C(O)/C=C/c1cc(Br)c(Br)c(Br)c1Br", "remaining activity": "94%"}
{"SMILES": "CC(C)(C)c1nc2c3cc[nH]c(=O)c3c3cc(F)ccc3c2[nH]1", "remaining activity": "35.3%"}
{"SMILES": "O=Nc1c(-c2c(O)[nH]c3ccccc23)[nH]c2ccccc12", "remaining activity": "65.8%"}
{"SMILES": "O=c1c(-c2ccc(F)cc2)c(-c2ccncc2)[nH]n1-c1ccc(Cl)cc1", "remaining activity": "95.1%"}
{"SMILES": "COc1cc2c(N3CCN(C(=O)Nc4ccc(OC(C)C)cc4)CC3)ncnc2cc1OCCCN1CCCCC1", "remaining activity": "101%"}
{"SMILES": "CCN(CC)CCCCN1c2ccccc2Oc2ccc(Cl)cc21", "remaining activity": "108%"}
{"SMILES": "N#CC(c1ccnc(NCCc2cccnc2)n1)c1nc2ccccc2s1 (centres unmarked)", "remaining activity": "93%"}
{"SMILES": "FC(F)(F)c1ccc(/C=C/c2nc(COc3ccc(CCCCn4ccnn4)cc3)co2)cc1", "remaining activity": "101%"}
{"SMILES": "CC(C)N(CCC(=O)c1ccc2ccccc2c1)Cc1ccccc1", "remaining activity": "96.3%"}
{"SMILES": "CNc1cc2c(Nc3cccc(Br)c3)ncnc2cn1", "remaining activity": "90.2%"}
{"SMILES": "C[C@@H](N)[C@H]1CC[C@H](C(=O)Nc2ccncc2)CC1", "remaining activity": "97.5%"}
{"data": "Study 3", "host": "mouse", "matrix": "microsomes or S9", "tested at": "2 µM", "time": "0.5 h"}
{"SMILES": "CC(C)c1noc(CCCn2ccc(-c3ccc(C#N)cc3)n2)n1", "remaining compound": "0.521%"}
{"SMILES": "CCC[C@H](CCO)n1c(C#N)cc(Cl)c1Br", "remaining compound": "21.3%"}
{"SMILES": "COc1ccc(Cl)cc1NC(=O)c1[nH]c(C)c(C(C)=O)c1C", "remaining compound": "53.3%"}
{"SMILES": "CC1CCc2c(sc3ncnc(NC(c4nnc5n4CCC5)C(C)C)c23)C1 (centres unmarked)", "remaining compound": "3.95%"}
{"SMILES": "C/C=C/Cn1c(C(=O)c2cc(C)cc(C)c2)c(CC)c(NCCO)nc1=O", "remaining compound": "19.6%"}
{"SMILES": "CC1(C)CC(Nc2ccc3nncn3n2)CC(C)(C)N1", "remaining compound": "76.1%"}
{"SMILES": "Cn1nc(Br)nc1N1CCC(O)CC1", "remaining compound": "81.2%"}
{"SMILES": "COc1cc2nc(OC3CCN(C(=O)OC(C)(C)C)CC3)nc(Nc3ccc(S(C)(=O)=O)cc3F)c2cc1OC", "remaining compound": "0.356%"}
{"SMILES": "CC(C)COc1cc(=O)n2c(c1C(=O)NCC1CCCCC1)CCCCC2", "remaining compound": "0.281%"}
{"SMILES": "CCCc1cc(=O)n2ncc(-c3ccc(Cl)cc3)c2[nH]1", "remaining compound": "> 99%"}
{"SMILES": "CCOC(=O)C(CC)c1cc(C#N)c(C#N)cc1O (centres unmarked)", "remaining compound": "21.3%"}
{"SMILES": "c1ccc(/C(Cc2ccn[nH]2)=N\\N=C(/Cc2ccn[nH]2)c2ccccc2)cc1", "remaining compound": "5.1%"}
{"SMILES": "COC(=O)c1ccccc1C1CCN(C(=O)OC(C)(C)C)CC1", "remaining compound": "4.21%"}
{"data": "Study 4", "SMILES": "CO[C@H]1CC[C@H](CNc2ccc(S(=O)(=O)NC(=O)c3ccc(N4CCN(CC5=C(c6ccc(Cl)cc6)CC(C)(C)CC5)CC4)cc3Oc3cnc4[nH]ccc4c3)cc2[N+](=O)[O-])CC1", "read-out": "cell-free assay", "technique": "competition with immobilised ligand", "tested at": "1 µM"}
{"target": "Mitogen-activated protein kinase kinase kinase kinase 4 (MAP4K4, Homo sapiens, UniProt O95819)", "remaining binding [%]": 100}
{"target": "Proto-oncogene tyrosine-protein kinase receptor Ret (RET, Homo sapiens, UniProt P07949, V804L)", "remaining binding [%]": 88}
{"target": "Serine/threonine-protein kinase pim-2 (PIM2, Homo sapiens, UniProt Q9P1W9)", "remaining binding [%]": 88}
{"target": "Serine/threonine-protein kinase RIO2 (RIOK2, Homo sapiens, UniProt Q9BVS4)", "remaining binding [%]": 89}
{"target": "Serine/threonine-protein kinase NIM1 (NIM1K, Homo sapiens, UniProt Q8IY84)", "remaining binding [%]": 90}
{"target": "Non-receptor tyrosine-protein kinase TYK2, JH2 (TYK2, Homo sapiens, UniProt P29597)", "remaining binding [%]": 67}
{"target": "Tyrosine-protein kinase BTK (BTK, Homo sapiens, UniProt Q06187)", "remaining binding [%]": 100}
{"target": "Serine/threonine-protein kinase SIK3 (SIK3, Homo sapiens, UniProt Q9Y2K2)", "remaining binding [%]": 89}
{"target": "Tyrosine-protein kinase JAK1, JH1 (JAK1, Homo sapiens, UniProt P23458)", "remaining binding [%]": 96}
{"target": "Peripheral plasma membrane protein CASK (CASK, Homo sapiens, UniProt O14936)", "remaining binding [%]": 100}
{"target": "3-phosphoinositide-dependent protein kinase 1 (PDPK1, Homo sapiens, UniProt O15530)", "remaining binding [%]": 72}
{"target": "Hormonally up-regulated neu tumor-associated kinase (HUNK, Homo sapiens, UniProt P57058)", "remaining binding [%]": 100}
{"target": "Mitogen-activated protein kinase 14 (MAPK14, Homo sapiens, UniProt Q16539)", "remaining binding [%]": 83}
{"target": "Serine/threonine-protein kinase PAK 3 (PAK3, Homo sapiens, UniProt O75914)", "remaining binding [%]": 64}
{"target": "Mitogen-activated protein kinase 12 (MAPK12, Homo sapiens, UniProt P53778)", "remaining binding [%]": 47}
{"note": "A few entries again (study 2):"}
{"SMILES": "O=c1c(-c2ccc(F)cc2)c(-c2ccncc2)[nH]n1-c1ccc(Cl)cc1", "remaining activity": "95.1%"}
{"SMILES": "COc1cc2c(N3CCN(C(=O)Nc4ccc(OC(C)C)cc4)CC3)ncnc2cc1OCCCN1CCCCC1", "remaining activity": "101%"}
{"SMILES": "CCN(CC)CCCCN1c2ccccc2Oc2ccc(Cl)cc21", "remaining activity": "108%"}
{"SMILES": "N#CC(c1ccnc(NCCc2cccnc2)n1)c1nc2ccccc2s1 (centres unmarked)", "remaining activity": "93%"}
{"SMILES": "FC(F)(F)c1ccc(/C=C/c2nc(COc3ccc(CCCCn4ccnn4)cc3)co2)cc1", "remaining activity": "101%"}
